Values quoted from earlier work that unrelated publications cite.
Protocols differ between the studies behind these lines. Values after ≈ are worked out from the molar mass of the structure shown.

C[C@H]1COc2c(N3CCN(C)CC3)c(F)cc3c(=O)c(C(=O)O)cn1c23 gave an MIC of 1 µg/mL (≈ 2.77 µM) (Mycobacterium tuberculosis; H37Ra).
With C[C@]1(CO)Cc2ncn(-c3ccc(C#N)c(Cl)c3)c2C(=O)O1 the hyperkalaemia incidence was 15% (patients with CKD; 10 mg).
With Cc1cc(O)c2c(c1)C(=O)c1cc(O)cc(O)c1C2=O the potency reduction was 5.1 to 7.3 fold (CK2 I174A mutant; concentration not given; relative to: wild-type CK2 over I174A).
With CO/N=C(\C(=O)N[C@@H]1C(=O)N2C(C(=O)O)=C(COC(C)=O)CS[C@H]12)c1csc(N)n1 the MIC was 64 µg/mL (≈ 141 µM) (Mycobacterium tuberculosis; H37Ra).
With O=C(N[C@H](CO)[C@H](O)c1ccc([N+](=O)[O-])cc1)C(Cl)Cl the MIC was 32 µg/mL (≈ 99 µM) (Streptococcus pneumoniae; E-test; strain 700678 serotype 19A resistant).
For NC(=O)CC[C@H](NC(=O)[C@@H]1CC[C@@H]2CCN(C(=O)CCCCCC#Cc3cccc4c3CN(C3CCC(=O)NC3=O)C4=O)C[C@H](NC(=O)c3cc4cc(C(F)(F)P(=O)(O)O)ccc4[nH]3)C(=O)N21)C(=O)NC(c1ccccc1)c1ccccc1 (some centres unmarked), “dose for complete regression” read 100 mg/kg (mouse, MOLM16 xenograft; weekly dosing).
CC[C@H]1OC(=O)[C@H](C)[C@@H](O[C@H]2C[C@@](C)(OC)[C@@H](O)[C@H](C)O2)[C@H](C)[C@@H](O[C@@H]2O[C@H](C)C[C@H](N(C)C)[C@H]2O)[C@](C)(O)C[C@@H](C)C(=O)[C@H](C)[C@@H](O)[C@]1(C)O gave an MIC of greater than 32 µg/mL (Streptococcus pneumoniae; E-test; strain 700678 serotype 19A resistant).
With `FHLRSRFAF` the IC50 was 1 nM (HLA class I histocompatibility antigen, B alpha chain, allele B*39:01 (Homo sapiens, UniProt P01889); peptide-MHC binding; peptide).

Repeated from above:
With CO/N=C(\C(=O)N[C@@H]1C(=O)N2C(C(=O)O)=C(COC(C)=O)CS[C@H]12)c1csc(N)n1 the MIC was 64 µg/mL (≈ 141 µM) (Mycobacterium tuberculosis; H37Ra).
